Experimental data of several laboratories.
Compare with care: the assays were run in different laboratories. Several values in a cell are separate wells, animals, samples, runs or records. Numbers after ± are the reported error.

Compound	assay	test system	conditions	tissue uptake
N#C[C@@H]1CCCN1C(=O)CNC(=O)c1ccnc2ccc(OCCCN3CCN(C(=O)CCc4ccc5c(c4)CN4CCN6CC(=O)[O][68Ga-]([O]C(=O)C4)([O]5)[O]c4ccc(CCC(=O)N5CCN(CCCOc7ccc8nccc(C(=O)NCC(=O)N9CCC[C@H]9C#N)c8c7)CC5)cc4C6)CC3)cc12		BALB/c nude mice, U-87 MG xenograft, heart	2 h	1.03 ± 0.06 %ID/g
CCCC[C@H](NC(=O)CNC(=O)CNC(=O)[C@H](CCCCNC(=O)C(C)c1ccc(CC(C)C)cc1)NC(=O)CN1CCN(CC(=O)O)CCN(CC(=O)O)CCN(CC(=O)O)CC1)C(=O)N[C@H]1CC(=O)NCCCC[C@@H](C(N)=O)NC(=O)[C@H](Cc2c[nH]c3ccccc23)NC(=O)[C@H](CCCNC(=N)N)NC(=O)[C@@H](Cc2ccccc2)NC(=O)[C@H](Cc2c[nH]cn2)NC1=O (stereo partly drawn) [lutetium-177 labelled]		C57 mice, tumour-bearing, tumor	2 h	13.8 ± 3.37 %ID/g
COc1ccc(Nc2nc(Nc3ccc(OCCOCC[18F])cc3)ncc2Br)cc1		ICR mice, S180 tumour-bearing, lung	intravenous, 370 kBq, 15 min	6.13 ± 0.48 %ID/g
O=C(NCC1OC2CCC=CCCC2O1)c1ccc(COCCOCCOCC[18F])cc1 (stereo not drawn)		healthy female BALB/c nude mice, spleen	intravenous, 7.4 MBq per mouse, 60 min	2.4 ± 0.6 %ID/g
CCCC[C@H](NC(=O)CCCCCCCNC(=O)CN1CCN(CC(=O)O)CCN(CC(=O)O)CC1)C(=O)N[C@H]1CC(=O)NCCCC[C@@H](C(N)=O)NC(=O)[C@H](Cc2c[nH]c3ccccc23)NC(=O)[C@H](CCCNC(=N)N)NC(=O)[C@@H](Cc2ccccc2)NC(=O)[C@H](Cc2c[nH]cn2)NC1=O [fluorine-18 labelled]		C57 mice B16-F10 melanoma, liver	intravenous, 0.37 MBq, 0.5 h	3.05 ± 0.51 %ID/g
O=C([O-])CN1CCN(CC(=O)[O-])CCN(CC(=O)NC[C@H]2CC[C@H](C(=O)N[C@H](Cc3cnc4ccccc4c3)C(=O)NCCCC[C@H](NC(=O)N[C@@H](CCC(=O)O)C(=O)O)C(=O)O)CC2)CCN(CC(=O)[O-])CC1.[64Cu+2]	ex vivo gamma counting	22Rv1 tumour-bearing mice, stomach	intravenous, 0.74 MBq, 24 h post-injection	6.05 %ID/g
Cc1cc(C)n(CCN(CCN)CCCCCCNC(=O)[C@@H](N)Cc2c[nH]cn2)n1.[99Tc+].[C-]#[O+].[C-]#[O+].[C-]#[O+]		BALB/c nude mice, MCF7 xenograft, heart	intravenous, 15 min	1.51 ± 0.16 %IA/g
CCCC[C@H](NC(=O)COCCOCCNC(=O)CN1CCN(CC(=O)O)CCN(CC(=O)O)CC1)C(=O)N[C@H]1CC(=O)NCCCC[C@@H](C(N)=O)NC(=O)[C@H](Cc2c[nH]c3ccccc23)NC(=O)[C@H](CCCNC(=N)N)NC(=O)[C@@H](Cc2ccccc2)NC(=O)[C@H](Cc2c[nH]cn2)NC1=O [fluorine-18 labelled]		C57 mice B16-F10 melanoma, lung	intravenous, 0.37 MBq, 2 h	0.28 ± 0.1 %ID/g
CC(C)C[C@H](NC(=O)[C@@H](CCCCNC(=O)[C@@H](Cc1ccccc1)NC(=O)CCCCCCCNC(=O)CN1CCN(CC(=O)O)CCN(CC(=O)O)CCN(CC(=O)O)CC1)NC(=O)[C@H](Cc1ccc(O)cc1)NC(=O)[C@H](CO)NC(=O)[C@H](Cc1c[nH]c2ccccc12)NC(=O)[C@H](Cc1c[nH]cn1)NC(=O)[C@@H]1CCC(=O)N1)C(=O)N[C@@H](CCCNC(=N)N)C(=O)N1CCC[C@H]1C(=O)NCC(N)=O [indium-111 labelled]		male athymic nude mice, DU-145 prostate cancer xenograft, bone	intravenous, dose not given, 1 h, with: unlabeled blocking peptide 10 µg	0.36 ± 0.13 %ID/g
O=C(NCC1OC2CCC=CCCC2O1)c1ccc([18F])nc1 (stereo not drawn)		healthy female BALB/c nude mice, skin	intravenous, 7.4 MBq per mouse, 5 min	2.1 ± 0.6 %ID/g
O=C(O)CCCOc1ccc([18F])cc1-c1cc(-c2ccccc2C(F)(F)F)n(-c2ccccc2)n1		mice, small intestine	intravenous, 15 min	1.68 ± 0.37 %ID/g
N#C[C@@H]1CCCN1C(=O)CNC(=O)c1ccnc2ccc(OCCCN3CCN(C(=O)CCc4ccc5c(c4)CN4CCN(Cc6cc(CCC(=O)O)ccc6O)CC(=O)[O][Al-]([18F])([O]C(=O)C4)[O]5)CC3)cc12 (stereo partly drawn)		BALB/c nude mice, U-87 MG xenograft, kidney	1 h, blocking, with: DOTA-FAPI-04 40 nmol/mouse co-injected	0.74 ± 0.14 %ID/g
COc1ccc2c(c1)C(C)(C)C(/C=C/C1=C(Oc3ccc(C(=O)NCCCCOc4cc(CN(Cc5ccccn5)Cc5ccccn5)cc(CN(Cc5ccccn5)Cc5ccccn5)c4)cc3)C(=C/C=C3/N(CCCCS(=O)(=O)[O-])c4ccc(OC)cc4C3(C)C)CCC1)=[N+]2CCCCS(=O)(=O)[O-].O=[N+]([O-])[O-].O=[N+]([O-])[O-].[99Tc+].[C-]#[O+].[C-]#[O+].[C-]#[O+].[Zn+2]		healthy BALB/c mice, brain	12 h	0.01 %ID/g and 0.03 %ID/g and 0.02 %ID/g
COc1ccc(Nc2nc(Nc3ccc(OCCOCCOCC[18F])cc3)ncc2Br)cc1		ICR mice, S180 tumour-bearing, lung	intravenous, 370 kBq, 5 min	10.6 ± 0.61 %ID/g
CCCC[C@H](NC(=O)CNC(=O)CNC(=O)[C@H](CCCCNC(=O)[C@H](CC(=O)O)NC(=O)C(C)c1ccc(CC(C)C)cc1)NC(=O)CN1CCN(CC(=O)O)CCN(CC(=O)O)CCN(CC(=O)O)CC1)C(=O)N[C@H]1CC(=O)NCCCC[C@@H](C(N)=O)NC(=O)[C@H](Cc2c[nH]c3ccccc23)NC(=O)[C@H](CCCNC(=N)N)NC(=O)[C@@H](Cc2ccccc2)NC(=O)[C@H](Cc2c[nH]cn2)NC1=O (stereo partly drawn) [lutetium-177 labelled]		C57 mice, tumour-bearing, skin	intravenous, 0.037 MBq, 4 h	0.45 ± 0.09 %ID/g
